Published values from different studies.
Protocols differ between the studies behind these lines. ± gives the spread as reported.
Sequence of UniProt Q9UNQ0 (whole entry, looked up): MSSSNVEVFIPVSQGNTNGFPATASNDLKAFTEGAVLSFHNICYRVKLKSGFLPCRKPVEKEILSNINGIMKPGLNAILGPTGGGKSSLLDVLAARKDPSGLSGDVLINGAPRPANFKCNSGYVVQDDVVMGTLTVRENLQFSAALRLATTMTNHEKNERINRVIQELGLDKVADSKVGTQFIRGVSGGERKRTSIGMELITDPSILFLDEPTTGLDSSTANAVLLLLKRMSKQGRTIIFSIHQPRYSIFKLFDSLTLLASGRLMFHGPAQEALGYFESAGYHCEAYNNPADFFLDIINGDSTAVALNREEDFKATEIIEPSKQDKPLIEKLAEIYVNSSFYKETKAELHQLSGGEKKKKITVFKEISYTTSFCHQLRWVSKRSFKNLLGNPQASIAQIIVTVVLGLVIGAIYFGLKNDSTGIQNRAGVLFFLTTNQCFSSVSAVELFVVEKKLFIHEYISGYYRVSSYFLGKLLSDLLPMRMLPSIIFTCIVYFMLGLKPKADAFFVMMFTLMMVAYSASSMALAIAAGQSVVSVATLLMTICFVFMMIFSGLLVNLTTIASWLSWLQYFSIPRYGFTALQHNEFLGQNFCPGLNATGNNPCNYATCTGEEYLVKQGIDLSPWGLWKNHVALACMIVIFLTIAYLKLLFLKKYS

CC[C@@]1(O)C(=O)OCc2c1cc1n(c2=O)Cc2cc3c(CN(C)C)c(O)ccc3nc2-1
efflux ratio (Broad substrate specificity ATP-binding cassette transporter ABCG2 (ABCG2, Homo sapiens, UniProt Q9UNQ0); 3D human intestinal tissue; 120 (unit not given), B-to-A over A-to-B, added: Ko143): 3.6

CN[C@@](C)(C[18F])C(=O)O
tracer uptake (DU-145 tumour model; host not given, tumour; 1 h, tumour-bearing): 4.5 %ID/g

[123I]c1cncc(OC[C@@H]2CCN2)c1
tissue/plasma ratio (SPECT; human, cerebellum; intravenous bolus plus infusion, 7.7 mCi; relative to: tissue over plasma): 26.9

CN1CC[C@]23c4c5ccc(O)c4O[C@H]2[C@@H](O[C@@H]2O[C@H](C(=O)O)[C@@H](O)[C@H](O)[C@H]2O)C=C[C@H]3[C@H]1C5
Papp (MDCK II; 100.0 µg/mL, 100.0 min, DMEM buffer): 2.11 ± 0.08 ×10⁻⁶ cm/s

CN1CC[C@@]23CCCC[C@@H]2[C@@H]1Cc1ccc(O)cc13
half-life (Wistar rat, both sexes, plasma; oral, 5 mg/kg DEM, DEM 2 h after pretreatment, added: QN 2.5 mg/kg single pretreatment): 5.98 ± 1.97 h

CSCC[C@@H]1NC(=O)[C@H](CC(=O)O)NC(=O)CNC(=O)[C@H](CCCNC(=N)N)NC(=O)[C@H](C)NC(=O)[C@H](CCC(=O)O)NC(=O)[C@H](CCCNC(=N)N)NC(=O)[C@@H]2CSSC[C@@H]3NC(=O)[C@H](CO)NC(=O)[C@H]([C@@H](C)O)NC(=O)[C@@H]4CCCN4C(=O)[C@H](C)NC(=O)[C@H](Cc4c[nH]c5ccccc45)NC(=O)[C@H](CC(=O)O)NC(=O)CNC(=O)[C@H](CCCNC(=N)N)NC(=O)CNC(=O)[C@H](CCC(N)=O)NC(=O)[C@@H]4CCCN4C(=O)[C@@H](NC(=O)CNC(=O)C(C)F)CSSC[C@H](NC(=O)CNC(=O)[C@H](C)NC(=O)[C@H](CC(C)C)NC(=O)[C@H](CSSC[C@@H](C(=O)NCC(N)=O)NC(=O)[C@H]([C@@H](C)O)NC(=O)[C@H](CCCNC(=N)N)NC(=O)[C@@H]4CCCN4C1=O)NC(=O)[C@H](CC(=O)O)NC(=O)[C@H](CO)NC(=O)[C@H](CC(=O)O)NC(=O)[C@H](CCC(N)=O)NC(=O)[C@H](CO)NC3=O)C(=O)N[C@@H](C(C)C)C(=O)N2 (stereo partly drawn) [fluorine-18 labelled]
tissue uptake (nude mouse, U-87 MG xenograft, liver; intravenous, 2.5 h, added: cyclo(RGDyK) co-injected): 0.19 ± 0.04 %ID/g

N[C@]1(c2ccccc2Cl)CCC[C@@H](O)C1=O
dose-normalized Cmax (male CD-1 mice, plasma; intraperitoneal, 5 mg/kg): 104 ± 23.9 ng/mL per mg/kg

C[C@H]1CNCCc2ccc(Cl)cc21
AUC(0-inf) (male Sprague-Dawley rat, plasma; subcutaneous, pimavanserin 0.5 + lorcaserin 0.5 mg/kg, pimavanserin 15 min earlier): 28.5 ± 1.88 ng·h/mL

CN1COCN(Cc2cnc(Cl)s2)/C1=N\[N+](=O)[O-]
EC20 (Folsomia candida; reproduction, OECD 232; LUFA 2.2 soil; 28 days): 0.1 mg/kg dry soil

Repeated from above:
N[C@]1(c2ccccc2Cl)CCC[C@@H](O)C1=O
dose-normalized Cmax (male CD-1 mice, plasma; intraperitoneal, 5 mg/kg): 104 ± 23.9 ng/mL per mg/kg
